Experimental data of several laboratories.
Each line is one published result; not all experiments were run side by side. ± gives the spread as reported.

Substance | test | test system | conditions | scale | measurement | result
CCCC[C@H](NC(=O)CNC(=O)CNC(=O)CN1CCN(CC(=O)O)CCN(CC(=O)O)CCN(CC(=O)O)CC1)C(=O)N[C@H]1CC(=O)NCCCC[C@@H](C(N)=O)NC(=O)[C@H](Cc2c[nH]c3ccccc23)NC(=O)[C@H](CCCNC(=N)N)NC(=O)[C@@H](Cc2ccccc2)NC(=O)[C@H](Cc2c[nH]cn2)NC1=O [gallium-67 labelled] |  | female C57 mice, B16/F1 melanoma | intravenous, 0.037 MBq, 0.5 h | relative to: tumour over muscle | tumour to tissue ratio | 35.8
COc1ccc2cc(-c3ccc(-c4ccc(C)cn4)nc3)oc2c1 |  | aqueous HEPES buffer | pH 7.4, added: quinine bisulfate reference |  | fluorescence quantum yield | 0.25
O=C([O-])CN1CCN(CC(=O)[O-])CCN(CC(=O)NCCc2ccc3c(c2)C2C=CCC2C(c2cc4c(cc2Br)OCO4)N3)CCN(CC(=O)[O-])CC1.[111In+3] (stereo not shown) |  | mouse, Hec50 endometrial tumour, stomach | 4 h post injection |  | tissue uptake | 0.3 ± 0.08 %ID/g
COC(=O)C1C(c2nc3ncccc3[nH]2)=Cc2cc3c(cc2C1c1cc(OC)c(OC)c(OC)c1)OCO3 (stereo not shown) | Alamar Blue | splenocytes, mouse, uninfected ex vivo splenic explants | 48 h |  | CC50 | 40.7 ± 6.5 µM
OCc1cn(Cc2ccc(-c3noc(-c4ccc(OCC[18F])c(C(F)(F)F)c4)n3)cc2)nn1 |  | Lewis rat, female, bone | intravenous, 0.08333 h |  | tissue uptake | 0.55 ± 0.05 %ID/g
O=c1nc(NO)ccn1[C@@H]1O[C@H](CO)[C@@H](O)[C@H]1O | RT-PCR, refers to: CYP3A18 | rat, arthritis model, liver | oral, 80 mg/kg twice daily, 5 days | relative to: untreated arthritic rats | mRNA level | 3.3 fold
NCC(=O)N1CCC[C@H]1C(=O)N1C[C@H](O)C[C@H]1C(=O)O | potentiometric titration |  | 40 °C, MAH-1 complex, added: Fe(III) |  | log beta | 13.4
CCCCCC(=O)C(=O)C(O)CO (stereo not shown) | pressure-area isotherm | lipid monolayer |  | relative to: control monolayer | convergence surface pressure | ~20 mN/m
COC(=O)/C=C/C(=O)c1ccc(OC)cc1 | LC-MS/MS | rat plasma | 40 ng/mL, 12 h, room temperature, short-term storage |  | recovery | 101 ± 1.91%
C#CCOc1ccc(/C=C2\SC(=O)N(CC(=O)NCc3ccccc3)C2=O)cc1 | inverse Kirkwood-Buff integrals | binary solvent mixture | concentration not given, 298.15 K, mole fraction x1 0.95 |  | correlation volume | 6000 cm³/mol
CC(C)c1cnc(-c2cc(Cl)ccc2F)cc1Nc1ccncc1C(=O)NC(CO)CO | monotherapy, refers to: diarrhoea | human patients | oral, dose not given, grade 2, phase I A |  | patients with treatment-related adverse event | 0%
C=C(c1ccc(C(=O)O)c(F)c1)c1cc2c(cc1C)C(C)(C)C=CC2(C)C |  | Sprague-Dawley rat, male | oral, 100 mg/kg, 2 h, sesame oil vehicle |  | blood triglycerides | 98 ± 18.2 mg/dL
Oc1ccc2ccccc2c1/N=N/c1ccccc1 |  | extracted rat blood QC samples | 0.2 µg/L, 2 h, room temperature, short-term stability |  | measured concentration | 0.217 µg/L
CCCC[C@H](NC(=O)CNC(=O)CNC(=O)CN1CCN(CC(=O)O)CCN(CC(=O)O)CCN(CC(=O)O)CC1)C(=O)N[C@H]1CC(=O)NCCCC[C@@H](C(N)=O)NC(=O)[C@H](Cc2c[nH]c3ccccc23)NC(=O)[C@H](CCCNC(=N)N)NC(=O)[C@@H](Cc2ccccc2)NC(=O)[C@H](Cc2c[nH]cn2)NC1=O [copper-64 labelled] |  | C57 mouse B16/F1 melanoma, tumor | 4 h |  | tissue uptake | 5.25 ± 1.22 %ID/g
Cc1ccc(C(=O)N[C@@H](CO)CC(C)C)cc1CO | LC-MS | human liver microsomes | 10 µM of parent drug, 60 min, pH 7.4, added: NADPH | relative to: parent drug at time zero | metabolite peak area | 0.1%
Nc1ncnc(NCC2CCN(C(=O)C(O)CO)CC2)c1-c1ccc(Oc2ccccc2)cc1 (stereo not shown) |  | healthy male human, plasma | oral, 75 mg evobrutinib | relative to: metabolite over total radioactivity | AUC(0-24) ratio | 14.9%
C=CC(=O)Nc1cc(Nc2nccc(-c3c[nH]c4ccccc34)n2)c(OC)cc1N(C)CCN(C)C | UHPLC-MS/MS | human, NSCLC patients, finger-prick dried blood spot | oral, 80 mg daily, steady state, at least 14 d treatment |  | median trough concentration | 19 ng/mL

Substance | test | test system | conditions | scale | measurement | result
O=S(=O)(c1ccccc1)N1CCCCC1 |  | phosphate-buffered saline | 24 h, pH 7.4 |  | recovery | 100%
O=C([O-])CN(CCN(CC(=O)[O-])CC(=O)[O-])CC(=O)[O-].[Co+2] | metal exchange with Zn2+, UV/Vis |  | 100 µM metal chelate, pH 7.4, 37 °C, added: 100 µM ZnCl2 |  | second-order rate constant | 8 ± 0.333 M⁻¹ s⁻¹
CCCC[C@H](NC(=O)CNC(=O)CNC(=O)CN1CCN(CC(=O)O)CCN(CC(=O)O)CCN(CC(=O)O)CC1)C(=O)N[C@H]1CC(=O)NCCCC[C@@H](C(N)=O)NC(=O)[C@H](Cc2c[nH]c3ccccc23)NC(=O)[C@H](CCCNC(=N)N)NC(=O)[C@@H](Cc2ccccc2)NC(=O)[C@H](Cc2c[nH]cn2)NC1=O [lead-203 labelled] | radio-HPLC | C57 mouse, urine | intravenous, 0.74 MBq, 2 h |  | intact fraction | ~65%
CC(C)CCCC(C)CCCC(C)CCO[C@@H]1O[C@H](CO)[C@@H](O[C@H]2O[C@H](CO)[C@@H](O)[C@H](O)[C@H]2O)[C@H](O)[C@H]1O (stereo partly shown) | dynamic surface tension |  | 0.0072 mmol/L |  | characteristic time t* | 167 s
Polymyxin B | ultrafiltration ELISA | 0.9% NaCl solution | 1 µg/mL, 100 kDa MMCO filter | relative to: positive control | fraction in filtrate | 98%
CN(O)C(=O)CCC(=O)NCCCN(CCCCN(CCCNC(=O)CCC(=O)N(C)O)C(=O)CCC(=O)N(C)O)C(=O)CCC(=O)N(C)O.[89Zr] |  | mouse, pancreas | 4 h |  | tracer uptake | 0.02 %ID/g
CCCC[C@@H]1NC(=O)[C@@H](NC(=O)[C@H](CCC(=O)O)NC(=O)CNC(=O)CN2CCN(CC(=O)O)CCN(CC(=O)O)CCN(CC(=O)O)CC2)CCCCNC(=O)C[C@@H](C(N)=O)NC(=O)[C@H](C(C)C)NC(=O)[C@@H]2CCCN2C(=O)[C@H](CCCNC(=N)N)NC(=O)CNC(=O)[C@H](Cc2c[nH]c3ccccc23)NC(=O)[C@H](CCCNC(=N)N)NC(=O)[C@@H](Cc2ccccc2)NC(=O)[C@H](Cc2c[nH]cn2)NC(=O)[C@H](CCC(=O)O)NC1=O [gallium-67 labelled] |  | C57 mice, B16/F10 lung metastases, bone | intravenous, 0.037 MBq/mouse, 4 h |  | tissue uptake | 0.44 ± 0.09 %ID/g
Cn1c(=O)oc2ccc(-c3ccc(CC(C#N)NC(=O)C4CNCCCO4)c(F)c3)cc21 (stereo not shown) |  | human | oral, 10 mg once daily, treatment-related AE, multiple ascending dose |  | acne incidence | 0%
O=C(N[c-]1cccc1)OCc1ccc(C(=O)O)cc1.[Fe+2].c1cc[cH-]c1 | cyclic and differential pulse voltammetry | acetonitrile | 23 °C | relative to: ferrocene/ferrocenium | E1/2 | -70 mV
COc1cc2c(cc1OC)CN(CCCCn1ccc3cc(OCC[18F])ccc31)C2 |  | ICR mice, male | intravenous, 120 min |  | brain/blood ratio | 0.85 ± 0.16
NC12CNCCNCC(NCc3ccc(CNC(=O)CCCC(=O)NCc4ccc(-c5nncnn5)cc4)cc3)(CNCCNC1)CNCCNC2.[64Cu+2] | OLINDA dosimetry | adrenals | 48 h pretargeting interval, added: huA33-TCO pretargeting |  | mean absorbed dose | 0.0347 rad/mCi
CC(C)C[C@@H](NC(=O)[C@H](NC(=O)[C@H]1CCCN1)[C@H](C)O)C(=O)N[C@H](Cc1c[nH]cn1)C(=O)N[C@@H](C(=O)N[C@H](Cc1c[nH]cn1)C(=O)N[C@H](CC(N)=O)C(=O)N[C@H](CCCNC(=N)N)C(=O)N[C@H](CCCNC(=N)N)C(=O)N[C@H](CCCNC(=N)N)C(=O)N[C@H](CCCNC(=N)N)C(=O)N[C@H](CCCNC(=N)N)C(N)=O)[C@H](C)O |  | Beagle dog, CSF | oral, 20 mg/kg |  | tmax | 8 ± 8 h
CC(C)[C@H](NC(=O)CNC(=O)[C@H](CCC(N)=O)NC(=O)[C@H](C)N)C(=O)O |  | healthy volunteers, LPS endotoxaemia, plasma | intravenous, 45 mg/kg/h, 2 h infusion, geometric mean, added: LPS 2 ng/kg |  | AUC(0-t) | 7650 ng·h/mL
CCCC[C@H](NC(C)=O)C(=O)N[C@H]1CC(=O)NCCCC[C@@H](C(=O)N[C@@H](C(=O)N2CCC[C@@H]2C(N)=O)C(C)C)NC(=O)[C@H](Cc2c[nH]c3ccccc23)NC(=O)[C@H](CCCN=C(N)N)NC(=O)[C@@H](Cc2ccc3ccccc3c2)NC(=O)[C@@H]2CCCN2C1=O |  | Beagle dog, both sexes, plasma | subcutaneous, once daily, 0.75 mg/kg, day 1 |  | Tmax | 0.9 ± 0.3 h
CC(C)(Sc1cc[n+]([O-])cc1-c1ccc(C#N)c2ccccc12)C(=O)OC1OC(C(=O)O)C(O)C(O)C1O (stereo not shown) |  | human, urine | oral, 15 mg, 72 h, severe renal impairment |  | renal clearance | 35 mL/min
CC(C)(O)c1ncc([S@](N)(=O)=NC(=O)Nc2c3c(cc4c2CCC4)CCC3)s1 |  | healthy human volunteers, plasma | oral, 25 mg twice daily, fed, enteric-coated tablet |  | lag time | 0.75 h
Oc1c(Br)cc(Br)c2nc3cc(C(F)(F)F)ccc3nc12 |  | human red blood cells | 200 µM, 1 h, pH 7.2, 37 °C |  | hemolysis | 7.2%

Repeated from above:
Substance | test | test system | conditions | scale | measurement | result
C=CC(=O)Nc1cc(Nc2nccc(-c3c[nH]c4ccccc34)n2)c(OC)cc1N(C)CCN(C)C | UHPLC-MS/MS | human, NSCLC patients, finger-prick dried blood spot | oral, 80 mg daily, steady state, at least 14 d treatment |  | median trough concentration | 19 ng/mL
O=S(=O)(c1ccccc1)N1CCCCC1 |  | phosphate-buffered saline | 24 h, pH 7.4 |  | recovery | 100%
O=C([O-])CN(CCN(CC(=O)[O-])CC(=O)[O-])CC(=O)[O-].[Co+2] | metal exchange with Zn2+, UV/Vis |  | 100 µM metal chelate, pH 7.4, 37 °C, added: 100 µM ZnCl2 |  | second-order rate constant | 8 ± 0.333 M⁻¹ s⁻¹
